Measured values from different studies.
Parts stem from different laboratories: compare values within a part only. Changes are numbered by the printed parent chain.

Study 1
Target: Fragile X messenger ribonucleoprotein 1, C-terminal low-complexity region (Fmr1, Mus musculus, UniProt P35922)
Technique: RNA Bind-n-Seq
Molecule type: RNA
Sample: in vitro
Concentration: 200 nM
Setting: whole 134-nt RNA, ends assumed
With: 150 mM KCl
Reference: input library
Direction: higher = stronger binding
All sequences stand within: GGGAGUUCUACAGUCCGACGAUC … UGGAAUUCUCGGGUGUCAAGG
| Strand | log2 enrichment |
| --- | --- |
| ACCAUGCAGGUGGGCAUCUUUGGGAAGUGGGGCAAGGGGGGGAUAGGGAGGGGGGUAACACUUUGGGAAGAGGUGGUCCCAGGUCGUUUC | 0.649 |
| CCUCAAGUCCUGUGCUACACAUCGUAUGUACCGAAUCGGUGGGGUGGGGUGGGAAAGUAUUAUGUUACGCCGUUCGGAUCUGCACUUCCA | 1.3 |
| CGGGAGGUGGAUUUUGUUUAUUUUUUUAGCUCAUUUCCAGGGGUGGGAAUUUUUUUUUAAUAUGUGUCAUGAAUAAAGUUGUUUUUGAAA | 0.402 |
| UCCUCAAGUCCUGUGCUACACAUCGUAUGUACCGAAUCGGUGGGUGGGUGGAAAGUAUUAUGUUACGCCGUUCGGAUCUGCACUUCCAGC | 0.0996 |
| GCAGGAAGUAAAAACAAAUGGAAAUGCUUCGGAUAGUGGCAGGGGUGGGGGUUGCUAAGGAAAAAGUGGGAUGGGAGUGGGUAAAGAGUU | 0.0762 |
| AGUCCUGUGCUACACAUCGUAUGUACCGAAUCGGGUUUUUGGGUUUUUGGUUUUUGGAAAGUAUUAUGUUACGCCGUUCGGAUCUGCACU | -0.56 |
| AGUCCUGUGCUACACAUCGUAUGUACCGAAUCGGAAAAAGGGGAAAAAGGAAAAAGGAAAGUAUUAUGUUACGCCGUUCGGAUCUGCACU | -0.606 |
| AAGUCCUGUGCUACACAUCGUAUGUACCGAAUCGGUUUUUGGUUUUUGGGUUUUUGGAAAGUAUUAUGUUACGCCGUUCGGAUCUGCACU | -0.808 |
| UUGAACAUCUGCAGGAAAAGAGGCGAGAGGGCACUUUGAGAGUGGAUACCUACACUCUAGUGCAGCCUGAGGCAGAAGACCAUGUUGAGA | -1.18 |
| GUCCUGUGCUACACAUCGUAUGUACCGAAUCGGAAAAAGGGGAAAAAGGGAAAAAGGGAAAGUAUUAUGUUACGCCGUUCGGAUCUGCAC | -0.373 |

Study 2
Target: RNA binding protein fox-1 homolog 2, RRM domain, GST-SBP tag (RBFOX2, Homo sapiens, UniProt O43251-10, residues 100-194)
Technique: RNA Bind-n-Seq
Molecule type: RNA
Sample: in vitro
Concentration: 365 nM
Setting: natural RNA segment, single round, ends assumed
Reference: no-protein control
Direction: higher = stronger binding
All sequences stand within: GGGAGUUCUACAGUCCGACGAUC … UGGAAUUCUCGGGUGCCAA
Construct (chain): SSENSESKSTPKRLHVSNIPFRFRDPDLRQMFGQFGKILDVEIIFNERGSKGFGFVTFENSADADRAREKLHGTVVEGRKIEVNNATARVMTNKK
| Strand | RBNS enrichment (R) |
| --- | --- |
| UUUAAGAUAUAGUUAAGAUAUAAAAGAAUGGCAGAAUGCGAUUGAUUCCUUCCUGUCGAGUUAAAUCUAAUCAGAUAUGAUGGAUGCCGGUAGUCCCAGCACUUGGAGAA | 0.355 |
| GUCACAUCAGCAUCUUUCUGCUUUGAAAACUCUCACAGCUGUGGCUGCUUCACUUAGAUGCAGUGAGACACAUAGUUGGUGUUCCGAUUUUCACAUCCUUCCAUGUAUUU | 0.426 |
| AGCCUAGCUGGAAUAUUGAUGCCAUACUAUAUUUUGCAUGCUAUUUUCUUCCCUAGAGGCAUUGAGGGCAAUUGCACUUUGGCUCUCUCAAGAUGUGUCAUUUUCAGACA | 4.77 |
| AAGCCCAAGCGGGAAACCCGCCCGGGAACUGUUCGCAGUUGACAACAAACUCUGACGCCCUCUGUUUUCAGUGAGUAGUGAACUCCGGAAGCACAAAGGCCAGCGUGACA | 0.214 |
| CACAAAGGCCCACACUUCCUGACGGAUGCCAGCUUGGGCACUGCUGUCUACUGACCCCAACCCUUGAUGAUAUGUAUUUAUUCAUUUGUUAUUUUACCAGCUAUUUAUUG | 0.495 |
| UGAACAAAUACUUUUGAAAAGAAAAGUUUGUUGUAUAGUCAAAAGAAAACGGUGUCAGCGGCCGAGACAAAUUCUGGUAGGUUCUGUGCAUGUGAAGCGGCCGUGAAGGG | 35.2 |
| UGCCAGGAAGCAACAAGGAGAGAGAAACACUAACUAGUCUUCCUUUAUAACCCAUUCAUACUCUCUGGCUGUCCCCAACCUUCAUAGUCUCCUGCAUCCAAAUGUCCUCU | 0.313 |
| GAAGCCCCCUGUGUGACCUGAGCACAGACUCCAUUUCUUCAGGUUUUGUAUAUCUCCAGGCAAGGUGAAGGGUACCCUUCGGACCCGCCUCAUAAACCAUCUCUGCAUCA | 0.63 |
| AUAAAAUUUAGUUCUUAGCUCUUGAACAGAAGCCUAAAAUUCCUGGUUCUCUCAGGGCUUCGCCUUCAAGGGUUCUGGAGGAGGGAAGGGUCUGCAGGUUCCAUGGGUGA | 0.736 |
| CAAUAAUGUUUCCAGAUCGAAUUUCCUCAUAGAGAAAAAAAAAAAGGUGUGCCUUGUGUCUGUGCUUCUCCGCUCUCUGAAAGGAUGGAUGGAUCUGAAGUUCUCAGCCC | 0.501 |
| AACCUAUUGCCUAUGAGAAACAUGUAAGAUAAUGUAUUUACAGCCAUUGUUACAAGUUUAUAAUGUAUUUUUCUAUCUUGUUUUAUAUGUAUGUUAUAUAACAUUCAAAA | 0.479 |
| UAUGAGAAAGGUAAGUCCAUUUUCCCCUUCAGGUCCUCAGUGGAUUACUUAACCACUGCUGUCCCUCGGUCCCUUUUUCCUAAACGGGUUUAGUUCUGUCUUUUUUCUCC | 0.315 |

Study 3
Target: CCNE2, cyclin fold, Cln2 fusion (human)
Technique: yeast growth competition, sequencing
Sample: yeast
Setting: weak parent motif
Reference: not given
Direction: higher = stronger binding
Starting sequence: RB1 docking peptide (human); PKPLKKLRFDIEG
| Variant | normalised enrichment score |
| --- | --- |
| L4S | 1.18 |
| G13H | 0.404 |
| I11A | 0.279 |
| F9E | -0.926 |
| P1N | 0.112 |
| K5A | 0.0867 |
| R8C | 0.134 |
| F9L | 0.714 |
| K6P | 0.365 |
| D10Q | -0.174 |
| P3Y | 0.329 |
| D10E | -0.0957 |
| P1E | 0.499 |
| F9S | 0.282 |
| L7Q | 0.346 |
| K6V | 0.674 |

Mixed results
| Substance | target | test | test system | setting | how to read | quantity | value |
| --- | --- | --- | --- | --- | --- | --- | --- |
| PhoQ, residues 284 288 289 292 302 303 TGYLSA | PhoP, residues 12 14 15 18 19 STWGI (Escherichia coli, UniProt P23836) | Sort-seq, measured: YFP reporter | E. coli | PhoQ-PhoP variant library, with: 10 µM Mg2+ | reference: high Mg2+ state, higher = stronger signaling | fold induction | 13.8 |

Some of these lines once more (study 2):
| Strand | RBNS enrichment (R) |
| --- | --- |
| UGCCAGGAAGCAACAAGGAGAGAGAAACACUAACUAGUCUUCCUUUAUAACCCAUUCAUACUCUCUGGCUGUCCCCAACCUUCAUAGUCUCCUGCAUCCAAAUGUCCUCU | 0.313 |
| GAAGCCCCCUGUGUGACCUGAGCACAGACUCCAUUUCUUCAGGUUUUGUAUAUCUCCAGGCAAGGUGAAGGGUACCCUUCGGACCCGCCUCAUAAACCAUCUCUGCAUCA | 0.63 |
| AUAAAAUUUAGUUCUUAGCUCUUGAACAGAAGCCUAAAAUUCCUGGUUCUCUCAGGGCUUCGCCUUCAAGGGUUCUGGAGGAGGGAAGGGUCUGCAGGUUCCAUGGGUGA | 0.736 |
| CAAUAAUGUUUCCAGAUCGAAUUUCCUCAUAGAGAAAAAAAAAAAGGUGUGCCUUGUGUCUGUGCUUCUCCGCUCUCUGAAAGGAUGGAUGGAUCUGAAGUUCUCAGCCC | 0.501 |
| AACCUAUUGCCUAUGAGAAACAUGUAAGAUAAUGUAUUUACAGCCAUUGUUACAAGUUUAUAAUGUAUUUUUCUAUCUUGUUUUAUAUGUAUGUUAUAUAACAUUCAAAA | 0.479 |
